Measured values from different studies.
Protocols differ between the studies behind these lines. Values joined by “and” are separate records of one study, mostly repeats; a detail may differ. Numbers after ± are the reported error.
Ribonucleoside-diphosphate reductase large subunit: Ribonucleoside-diphosphate reductase large subunit (Homo sapiens, UniProt P23921)
Sequence of UniProt P23921 (whole entry, looked up): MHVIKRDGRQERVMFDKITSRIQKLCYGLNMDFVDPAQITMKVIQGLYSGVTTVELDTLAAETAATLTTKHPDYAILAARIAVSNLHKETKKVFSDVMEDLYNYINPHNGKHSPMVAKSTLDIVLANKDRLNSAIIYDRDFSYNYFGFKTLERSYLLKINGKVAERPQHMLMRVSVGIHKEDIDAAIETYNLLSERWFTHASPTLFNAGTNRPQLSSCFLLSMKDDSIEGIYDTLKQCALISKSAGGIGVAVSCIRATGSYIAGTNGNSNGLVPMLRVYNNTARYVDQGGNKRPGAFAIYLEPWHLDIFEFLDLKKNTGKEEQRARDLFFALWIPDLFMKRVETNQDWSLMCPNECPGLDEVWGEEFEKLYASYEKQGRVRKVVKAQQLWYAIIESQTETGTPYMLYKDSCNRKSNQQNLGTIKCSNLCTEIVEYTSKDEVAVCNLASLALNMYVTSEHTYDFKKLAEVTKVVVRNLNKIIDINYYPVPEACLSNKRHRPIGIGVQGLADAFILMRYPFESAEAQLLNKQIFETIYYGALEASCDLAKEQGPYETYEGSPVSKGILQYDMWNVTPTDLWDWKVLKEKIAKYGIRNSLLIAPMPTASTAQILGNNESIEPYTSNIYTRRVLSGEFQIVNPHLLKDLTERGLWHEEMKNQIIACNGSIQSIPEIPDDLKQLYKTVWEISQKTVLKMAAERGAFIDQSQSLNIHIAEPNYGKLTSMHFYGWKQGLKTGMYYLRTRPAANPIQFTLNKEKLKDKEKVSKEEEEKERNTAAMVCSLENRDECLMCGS
BCL2L1: Bcl-2-like protein 1 (BCL2L1, Homo sapiens, UniProt Q07817)
Sequence of UniProt Q07817 (whole entry, looked up): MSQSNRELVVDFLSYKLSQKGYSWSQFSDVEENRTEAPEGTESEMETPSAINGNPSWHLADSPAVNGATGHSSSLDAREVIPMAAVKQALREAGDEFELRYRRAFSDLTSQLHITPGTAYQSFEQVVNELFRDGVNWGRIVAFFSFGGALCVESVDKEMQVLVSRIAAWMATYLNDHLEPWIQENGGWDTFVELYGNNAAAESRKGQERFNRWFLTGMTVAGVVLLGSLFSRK
Methyl-accepting chemotaxis protein Tlp3 sensing domain: Methyl-accepting chemotaxis protein Tlp3, sensing domain (Campylobacter jejuni, UniProt Q0P864)
B1: calmodulin C-domain; chain MKEQDSEEELIEAFKVFDRDGNGLISAAELRHVMTNLGEKLTDDEVDEMIREADIDGDGHINYEEFVRMMVSK
Sequence of UniProt Q60603 (whole entry, looked up): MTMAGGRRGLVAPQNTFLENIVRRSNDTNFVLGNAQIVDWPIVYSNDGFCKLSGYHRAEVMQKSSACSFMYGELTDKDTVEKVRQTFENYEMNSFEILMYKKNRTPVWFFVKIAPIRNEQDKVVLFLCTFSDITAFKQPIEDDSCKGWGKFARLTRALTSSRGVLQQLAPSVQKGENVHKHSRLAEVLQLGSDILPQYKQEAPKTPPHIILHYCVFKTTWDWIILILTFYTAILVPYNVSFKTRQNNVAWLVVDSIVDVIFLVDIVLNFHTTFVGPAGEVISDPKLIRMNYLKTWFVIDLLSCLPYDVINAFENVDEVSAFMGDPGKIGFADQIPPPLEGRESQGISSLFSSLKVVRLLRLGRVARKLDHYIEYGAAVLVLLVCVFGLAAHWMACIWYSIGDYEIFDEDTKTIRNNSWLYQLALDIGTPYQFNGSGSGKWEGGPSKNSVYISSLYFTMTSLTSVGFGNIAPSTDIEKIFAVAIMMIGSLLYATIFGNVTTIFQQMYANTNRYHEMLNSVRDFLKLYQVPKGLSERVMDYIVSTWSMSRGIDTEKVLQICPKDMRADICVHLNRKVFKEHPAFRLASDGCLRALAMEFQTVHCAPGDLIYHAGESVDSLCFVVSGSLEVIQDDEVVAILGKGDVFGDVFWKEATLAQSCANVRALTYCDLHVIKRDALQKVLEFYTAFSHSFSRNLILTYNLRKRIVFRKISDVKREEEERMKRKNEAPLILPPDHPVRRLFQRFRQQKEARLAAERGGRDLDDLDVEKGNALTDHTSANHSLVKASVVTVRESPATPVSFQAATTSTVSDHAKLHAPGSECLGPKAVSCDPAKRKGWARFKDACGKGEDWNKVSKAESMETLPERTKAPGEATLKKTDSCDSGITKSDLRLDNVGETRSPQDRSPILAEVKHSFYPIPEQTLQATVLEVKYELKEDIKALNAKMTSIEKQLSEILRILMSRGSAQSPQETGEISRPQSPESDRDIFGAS
Sequence of UniProt P07148 (whole entry, looked up): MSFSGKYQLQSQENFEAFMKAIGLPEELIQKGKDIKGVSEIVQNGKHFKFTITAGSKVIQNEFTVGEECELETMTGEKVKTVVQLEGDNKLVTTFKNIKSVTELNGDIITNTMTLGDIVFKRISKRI
Sequence of UniProt Q6WG30 (whole entry, unmodified, looked up): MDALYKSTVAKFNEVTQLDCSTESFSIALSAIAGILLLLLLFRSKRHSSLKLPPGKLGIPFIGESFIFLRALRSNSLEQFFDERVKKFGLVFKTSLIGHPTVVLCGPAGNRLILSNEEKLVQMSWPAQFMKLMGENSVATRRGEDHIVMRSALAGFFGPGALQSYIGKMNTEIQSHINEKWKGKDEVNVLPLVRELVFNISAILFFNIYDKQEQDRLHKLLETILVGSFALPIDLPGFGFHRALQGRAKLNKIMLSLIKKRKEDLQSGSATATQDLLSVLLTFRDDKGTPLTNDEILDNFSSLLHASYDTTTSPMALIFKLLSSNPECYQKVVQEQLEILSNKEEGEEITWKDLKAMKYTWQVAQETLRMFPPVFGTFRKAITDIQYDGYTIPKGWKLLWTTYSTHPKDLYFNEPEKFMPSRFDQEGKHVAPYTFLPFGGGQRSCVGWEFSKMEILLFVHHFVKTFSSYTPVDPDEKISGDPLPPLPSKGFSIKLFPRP
Sequence of UniProt P02730 (whole entry, looked up): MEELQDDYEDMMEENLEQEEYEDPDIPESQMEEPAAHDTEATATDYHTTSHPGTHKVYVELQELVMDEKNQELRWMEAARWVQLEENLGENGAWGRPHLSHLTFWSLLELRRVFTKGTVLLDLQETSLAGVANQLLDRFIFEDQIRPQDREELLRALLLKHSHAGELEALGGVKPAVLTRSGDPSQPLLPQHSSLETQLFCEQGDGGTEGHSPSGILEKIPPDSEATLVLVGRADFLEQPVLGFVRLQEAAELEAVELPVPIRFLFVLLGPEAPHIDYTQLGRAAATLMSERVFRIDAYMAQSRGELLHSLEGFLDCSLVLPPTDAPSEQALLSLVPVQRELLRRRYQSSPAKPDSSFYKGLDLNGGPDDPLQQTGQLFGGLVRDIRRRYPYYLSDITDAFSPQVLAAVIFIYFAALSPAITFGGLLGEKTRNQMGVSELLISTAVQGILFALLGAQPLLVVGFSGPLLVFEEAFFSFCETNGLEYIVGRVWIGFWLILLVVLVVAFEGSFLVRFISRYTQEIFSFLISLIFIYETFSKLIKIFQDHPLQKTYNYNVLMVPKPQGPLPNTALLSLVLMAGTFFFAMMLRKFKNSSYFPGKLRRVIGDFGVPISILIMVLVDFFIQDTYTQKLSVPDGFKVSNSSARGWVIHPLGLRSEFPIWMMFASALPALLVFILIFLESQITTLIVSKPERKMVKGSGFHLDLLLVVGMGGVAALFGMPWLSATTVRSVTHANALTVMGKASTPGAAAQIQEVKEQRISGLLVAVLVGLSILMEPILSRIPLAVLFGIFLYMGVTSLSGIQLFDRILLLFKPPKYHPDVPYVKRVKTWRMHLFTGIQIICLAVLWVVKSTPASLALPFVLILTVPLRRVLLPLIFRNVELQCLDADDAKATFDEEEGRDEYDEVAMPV
Sequence of UniProt P69905 (whole entry, looked up): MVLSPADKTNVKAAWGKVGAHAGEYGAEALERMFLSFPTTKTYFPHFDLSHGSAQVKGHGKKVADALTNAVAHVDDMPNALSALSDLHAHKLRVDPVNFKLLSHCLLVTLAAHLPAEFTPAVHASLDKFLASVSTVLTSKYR
Sequence of UniProt P00921 (whole entry, looked up): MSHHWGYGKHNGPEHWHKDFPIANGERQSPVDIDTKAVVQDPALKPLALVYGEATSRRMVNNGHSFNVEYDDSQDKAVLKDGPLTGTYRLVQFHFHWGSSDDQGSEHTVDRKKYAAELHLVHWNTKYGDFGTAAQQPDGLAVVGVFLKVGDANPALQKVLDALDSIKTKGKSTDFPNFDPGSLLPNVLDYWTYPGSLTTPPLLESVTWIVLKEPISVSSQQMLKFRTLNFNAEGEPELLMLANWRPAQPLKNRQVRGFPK
Sequence of UniProt P08684 (whole entry, unmodified, looked up): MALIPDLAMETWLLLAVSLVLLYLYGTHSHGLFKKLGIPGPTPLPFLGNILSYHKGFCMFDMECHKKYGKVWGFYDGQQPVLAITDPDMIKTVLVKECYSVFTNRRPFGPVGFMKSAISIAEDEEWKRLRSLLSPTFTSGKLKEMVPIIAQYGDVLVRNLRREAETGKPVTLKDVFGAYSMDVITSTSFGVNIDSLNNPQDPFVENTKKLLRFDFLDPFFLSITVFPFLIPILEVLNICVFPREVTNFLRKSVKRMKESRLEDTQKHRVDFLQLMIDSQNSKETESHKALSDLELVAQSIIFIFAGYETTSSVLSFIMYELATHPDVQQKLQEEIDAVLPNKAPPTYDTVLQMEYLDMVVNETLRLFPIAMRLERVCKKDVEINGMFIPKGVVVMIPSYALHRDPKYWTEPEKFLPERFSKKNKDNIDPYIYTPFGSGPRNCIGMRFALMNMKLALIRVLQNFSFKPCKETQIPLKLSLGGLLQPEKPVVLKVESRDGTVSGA
Sequence of UniProt P02649 (whole entry, unmodified, looked up): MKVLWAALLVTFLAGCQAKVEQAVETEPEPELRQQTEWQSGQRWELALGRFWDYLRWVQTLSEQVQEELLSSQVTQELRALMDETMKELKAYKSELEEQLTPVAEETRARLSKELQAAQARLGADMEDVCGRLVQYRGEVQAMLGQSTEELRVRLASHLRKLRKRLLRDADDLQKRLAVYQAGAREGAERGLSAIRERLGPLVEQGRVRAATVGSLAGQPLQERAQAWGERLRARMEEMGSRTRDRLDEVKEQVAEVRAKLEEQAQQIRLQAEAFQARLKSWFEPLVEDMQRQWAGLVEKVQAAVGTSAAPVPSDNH
Sequence of UniProt P06768 (whole entry, looked up): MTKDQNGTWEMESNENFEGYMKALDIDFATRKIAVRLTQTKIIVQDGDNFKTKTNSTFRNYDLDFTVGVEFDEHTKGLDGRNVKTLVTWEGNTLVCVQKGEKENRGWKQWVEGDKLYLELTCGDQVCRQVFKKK

| Substance | target | test | test system | setting | Kd |
| --- | --- | --- | --- | --- | --- |
| CC(=O)[C@H]1CC[C@H]2[C@@H]3CCC4=CC(=O)CC[C@]4(C)[C@H]3CC[C@]12C | Cytochrome P450 3A4 (CYP3A4, Homo sapiens, UniProt P08684, S18F) | – | POPC Nanodiscs | pH 7.4, 37 °C, first binding step | 7 µM |
| CC1=CCC[C@@]2(C)CCC3=C(C)CC[C@@H](C[C@H]12)C3(C)C | Taxadiene 5-alpha hydroxylase, N-terminal Δ1-24; CPR fusion (Taxus cuspidata, UniProt Q6WG30) | binding, UV-Vis type I spectral titration | – | 32 °C, CYP-CPR fusion, no NADPH | 2.1 ± 0.4 µM |
| Cn1nc(CC(=O)Nc2cc(S(=O)(=O)Nc3cccc(Cl)c3)ccc2O)c2ccccc2c1=O | APOE (Homo sapiens, UniProt P02649, C130R/S157C) | fluorescence quenching titration | Alexa488-labelled protein, PBS | pH 7.4, 25 °C, label at position 139 | 9.3 ± 1.1 µM |
| C[N+](C)(C)CCO | Chrnd/Chrna1/Chrne (Mus musculus, UniProt P02716+P04756+P20782, D117H) | binding | – | – | 2100 ± 300 µM |
| CN[C@H](CC(C)C)C(=O)N[C@H]1C(=O)N[C@@H](CC(N)=O)C(=O)N[C@H]2C(=O)N[C@H]3C(=O)N[C@H](C(=O)N[C@H](C(=O)O)c4cc(O)cc(O)c4-c4cc3ccc4O)[C@H](O)c3ccc(c(Cl)c3)Oc3cc2cc(c3O[C@@H]2O[C@H](CO)[C@@H](O)[C@H](O)[C@H]2O[C@H]2C[C@](C)(N)[C@H](O)[C@H](C)O2)Oc2ccc(cc2Cl)[C@H]1O | acetyl-Lys-D-Ala-D-Ala | binding, microscale thermophoresis | – | 25 °C | 1 ± 0.3 µM |
| FITC-CXCL8 | heparan sulfate | binding, fluorescence titration | – | 20 °C | 0.128 µM |
| O=C(N/N=C/c1cc(-c2ccccc2)ccc1O)c1ccccc1O | Ribonucleoside-diphosphate reductase large subunit | binding, fluorescence | – | – | 8.7 µM |
| Nc1ncnc2c1ncn2[C@@H]1O[C@H](COP(=O)(O)OP(=O)(O)O)[C@@H](O)[C@H]1O | kinase | binding, surface plasmon resonance | – | 25 °C, 3% DMSO | 41 ± 2 µM |
| COc1ccc(-c2cnc(-c3ccccc3O)s2)cc1 | Ribonucleoside-diphosphate reductase large subunit | binding, fluorescence | – | pH 8 | 70.2 µM |
| O=Cc1c(O)cccc1OCc1cccc(CO)n1 | Hemoglobin subunit alpha, with beta chain (HBA1, Homo sapiens, UniProt P69905) | binding, cation-exchange HPLC | – | 37 °C, steady state | 100 µM |
| Cc1cc(=S)c(O)co1 | Carbonic anhydrase 2, Co(II)-substituted (CA2, Bos taurus, UniProt P00921) | binding, UV-vis titration | – | pH 7.5, protonated form | 160 µM |
| c1ccc2nc3ccccc3cc2c1 | HIV-1 nucleocapsid-SL3 RNA complex | binding, ESI-FTMS | – | pH 7.5 | 14.5 ± 1.2 µM |
| Nc1ncnc2c1ncn2[C@@H]1O[C@H](COP(=O)(O)OP(=O)(O)OP(=O)(O)O)[C@@H](O)[C@H]1O | Branched-chain alpha-ketoacid dehydrogenase kinase (BCKDK, Homo sapiens, UniProt O14874) | binding, surface plasmon resonance | – | – | 15 µM |
| CN(C)c1cccc2c(S(=O)(=O)NCCCCCCCCCCC(=O)O)cccc12 | Fatty acid-binding protein, liver (FABP1, Homo sapiens, UniProt P07148) | binding, fluorescence titration | – | low-affinity site, with: FABP1 0.3 µM | > 3.3 µM |
| YAQELQRYGDET | BCL2L1 | yeast display titration | peptide | 2 h, pH 8.0, room temperature | 0.0052 ± 0.0005 µM |
| CC(=O)N[C@@H](CC(C)C)C(=O)N[C@@H](CCCCN)C(=O)N[C@@H](CCCCN)C(=O)N[C@@H](CC(C)C)C(=O)N[C@@H](CC(C)C)C(=O)N[C@@H](CCCCN)C(=O)N[C@@H](CC(C)C)C(=O)N[C@@H](CC(C)C)C(=O)N[C@@H](CCCCN)C(=O)N[C@@H](CCCCN)C(=O)N[C@@H](CC(C)C)C(=O)N[C@@H](CC(C)C)C(=O)N[C@@H](CCCCN)C(=O)N[C@@H](Cc1c[nH]c2ccccc12)C(=O)N[C@@H](C)C(=O)NCC(N)=O | HIV-1 TAR hairpin RNA | competitive fluorescence anisotropy | – | pH 7.4, 20 °C, with: rhodamine-Rev peptide | 0.0078 ± 0.0006 µM |
| NC(=O)c1ccc[n+]([C@@H]2O[C@H](COP(=O)([O-])OP(=O)(O)OC[C@H]3O[C@@H](n4cnc5c(N)ncnc54)[C@H](O)[C@@H]3O)[C@@H](O)[C@H]2O)c1 | Aldo-keto reductase family 1 member C3 (AKR1C3, Homo sapiens, UniProt P42330) | tryptophan fluorescence titration | – | pH 7.0, 25 °C | 170 ± 26 µM |
| CC(C)C[C@H](N)C(=O)O | Methyl-accepting chemotaxis protein Tlp3 (Campylobacter jejuni, UniProt Q0P864) | binding, ITC | – | – | 676 ± 32 µM |
| VGAQLRRIADDV | BCL2L1 | yeast display titration | peptide | 2 h, pH 8.0, room temperature | 0.00026 ± 6e-05 µM |

| Substance | target | test | test system | setting | Kd |
| --- | --- | --- | --- | --- | --- |
| B1 (calmodulin C-domain) | rat NaV1.2 IQ motif | FRET biosensor titration | – | pH 7.4, 22 °C, calcium-saturated, with: 1 mM CaCl2 | 0.386 µM |
| COc1ccc(-c2ccoc2)c(/C=N/NC(=O)c2ccccc2O)c1O | Ribonucleoside-diphosphate reductase large subunit | binding, fluorescence | – | pH 8 | 31.5 µM |
| CC(C)S[C@@H]1O[C@H](CO)[C@H](O)[C@H](O)[C@H]1O | PA-I galactophilic lectin (lecA, Pseudomonas aeruginosa, UniProt Q05097) | isothermal titration calorimetry | – | pH 7.5, 25 °C, with: 25 mM CaCl2 | 32.4 ± 2.7 µM |
| O=P(O)(O)OC1[C@H](O)[C@H](OP(=O)(O)O)C(OP(=O)(O)O)[C@H](OP(=O)(O)O)[C@H]1O (stereo partly shown) | 3-phosphoinositide-dependent protein kinase 1, PH domain (PDPK1, Homo sapiens, UniProt O15530, T513E) | binding, FRET competition | – | – | 0.32 ± 0.07 µM |
| [I-].[K+] | SLC4A1 (Homo sapiens, UniProt P02730) | Cl- exchange, inhibitor, 36Cl flux | erythrocytes, external | pH 8.5, 0 °C, internal Cl- 156 mM | 710 µM |
| C[C@H](N)C(=O)N[C@@H](CCCNC(=N)N)C(=O)N[C@H](C(=O)N[C@@H](CCCCN)C(=O)N[C@@H](CCC(N)=O)C(=O)N[C@H](C(=O)N[C@@H](C)C(=O)N[C@@H](CCCNC(=N)N)C(=O)N[C@@H](CCCCN)C(=O)N[C@@H](CO)C(=O)N[C@H](C(=O)NCC(=O)O)[C@@H](C)O)[C@@H](C)O)[C@@H](C)O | Baculoviral IAP repeat-containing protein 5.1-A (birc5.1-a, Xenopus laevis, UniProt Q8JGN5) | ITC | – | pH 7.2, 25 °C | 38.4 ± 5.3 µM |
| Oregon Green | calcium | fluorescence | – | 22 °C | 32.2 µM |
| CC(C)[C@H](N)C(=O)O | Methyl-accepting chemotaxis protein Tlp3 sensing domain | binding, thermal shift | – | 25 °C, zero heat capacity change, ITC enthalpy | 285 ± 74 µM |
| VAQELRRYGDEY | BCL2L1 | yeast display titration | peptide | 2 h, pH 8.0, room temperature | 0.0024 ± 0.0003 µM |
| CCC[C@H](N)C(=O)O | Methyl-accepting chemotaxis protein Tlp3 sensing domain | binding, thermal shift curve fitting | – | at Tm sensing domain | 3800 ± 1500 µM |
| O=C(NN=Cc1ccc(C[n+]2ccccc2)cc1)c1ccc2ccc3ccc(C(=O)NN=Cc4ccc(C[n+]5ccccc5)cc4)nc3c2n1 | MYC promoter G4 DNA | binding, native ESI-MS | 100 mM trimethylammonium acetate | 1 mM KCl | 0.58 µM |
| CC(=O)N[C@@H]1[C@@H](O[C@H](C)C(=O)N[C@@H](C)C(=O)O)[C@H](O)[C@@H](CN)O[C@@H]1O | Nucleotide-binding oligomerization domain-containing protein 2 (NOD2, Homo sapiens, UniProt Q9HC29) | binding, BSI | HEK293T vesicles | – | binds |
| O=c1c(O)c(-c2ccc(O)c(O)c2)oc2cc(O)cc(O)c12 | Kcnh1, C-linker/CNBHD (Mus musculus, UniProt Q60603) | tryptophan FRET | – | – | ≥ 93 µM and 93 µM |
| CC1=C(/C=C/C(C)=C/C=C/C(C)=C/CO)C(C)(C)CCC1 | Retinol-binding protein 2 (Rbp2, Rattus norvegicus, UniProt P06768) | binding, fluorescence titration | – | pH 7.4, 25 °C | 0.01 ± 0.003 µM |
| CC(=O)N[C@@H](CC(C)C)C(=O)N[C@@H](CCCCN)C(=O)N[C@@H](CCCCN)C(=O)N[C@@H](Cc1c[nH]c2ccccc12)C(=O)N[C@@H](CC(C)C)C(=O)N[C@@H](CCCCN)C(=O)N[C@@H](CC(C)C)C(=O)N[C@@H](CC(C)C)C(=O)N[C@@H](CCCCN)C(=O)N[C@@H](CCCCN)C(=O)N[C@@H](CC(C)C)C(=O)N[C@@H](CC(C)C)C(=O)N[C@@H](CCCCN)C(=O)N[C@@H](CC(C)C)C(=O)N[C@@H](C)C(=O)NCC(N)=O | HIV-1 TAR hairpin RNA | competitive fluorescence anisotropy | – | pH 7.4, 20 °C, with: rhodamine-Rev peptide | 0.034 ± 0.0009 µM |
| O=C(NNC(=O)c1c(O)ccc2ccccc12)c1cccnc1 | Ribonucleoside-diphosphate reductase large subunit | binding, fluorescence | – | – | 4.1 µM |
| O=C1c2c(O)ccc(O)c2C(=O)c2c(NCCNCCO)ccc(NCCNCCO)c21 | HIV-1 nucleocapsid-SL3 RNA complex | binding, ESI-FTMS | – | pH 7.5 | 10.3 ± 1.8 µM |
| CC(=O)N[C@@H](CC(C)C)C(=O)N[C@@H](CCCCN)C(=O)N[C@@H](CCCCN)C(=O)N[C@@H](CC(C)C)C(=O)N[C@@H](CC(C)C)C(=O)N[C@@H](CCCCN)C(=O)N[C@@H](Cc1c[nH]c2ccccc12)C(=O)N[C@@H](CC(C)C)C(=O)N[C@@H](CCCCN)C(=O)N[C@@H](CCCCN)C(=O)N[C@@H](CC(C)C)C(=O)N[C@@H](CC(C)C)C(=O)N[C@@H](CCCCN)C(=O)N[C@@H](CC(C)C)C(=O)N[C@@H](C)C(=O)NCC(N)=O | HIV-1 TAR hairpin RNA | competitive fluorescence anisotropy | – | pH 7.4, 20 °C, with: rhodamine-Rev peptide | 0.021 ± 0.001 µM |

A few entries again:
| Substance | target | test | test system | setting | Kd |
| --- | --- | --- | --- | --- | --- |
| Oregon Green | calcium | fluorescence | – | 22 °C | 32.2 µM |
| O=C1c2c(O)ccc(O)c2C(=O)c2c(NCCNCCO)ccc(NCCNCCO)c21 | HIV-1 nucleocapsid-SL3 RNA complex | binding, ESI-FTMS | – | pH 7.5 | 10.3 ± 1.8 µM |
| C[N+](C)(C)CCO | Chrnd/Chrna1/Chrne (Mus musculus, UniProt P02716+P04756+P20782, D117H) | binding | – | – | 2100 ± 300 µM |
| CC(=O)N[C@@H](CC(C)C)C(=O)N[C@@H](CCCCN)C(=O)N[C@@H](CCCCN)C(=O)N[C@@H](CC(C)C)C(=O)N[C@@H](CC(C)C)C(=O)N[C@@H](CCCCN)C(=O)N[C@@H](CC(C)C)C(=O)N[C@@H](CC(C)C)C(=O)N[C@@H](CCCCN)C(=O)N[C@@H](CCCCN)C(=O)N[C@@H](CC(C)C)C(=O)N[C@@H](CC(C)C)C(=O)N[C@@H](CCCCN)C(=O)N[C@@H](Cc1c[nH]c2ccccc12)C(=O)N[C@@H](C)C(=O)NCC(N)=O | HIV-1 TAR hairpin RNA | competitive fluorescence anisotropy | – | pH 7.4, 20 °C, with: rhodamine-Rev peptide | 0.0078 ± 0.0006 µM |
| Cn1nc(CC(=O)Nc2cc(S(=O)(=O)Nc3cccc(Cl)c3)ccc2O)c2ccccc2c1=O | APOE (Homo sapiens, UniProt P02649, C130R/S157C) | fluorescence quenching titration | Alexa488-labelled protein, PBS | pH 7.4, 25 °C, label at position 139 | 9.3 ± 1.1 µM |
| O=C(NNC(=O)c1c(O)ccc2ccccc12)c1cccnc1 | Ribonucleoside-diphosphate reductase large subunit | binding, fluorescence | – | – | 4.1 µM |
